Experimental data collected from several papers.
Lines come from different studies, so protocols differ.
4'-phosphopantetheinyl transferase PptT: 4'-phosphopantetheinyl transferase PptT (Mycobacterium tuberculosis, UniProt O33336)
Chain of UniProt O33336 (whole entry, looked up): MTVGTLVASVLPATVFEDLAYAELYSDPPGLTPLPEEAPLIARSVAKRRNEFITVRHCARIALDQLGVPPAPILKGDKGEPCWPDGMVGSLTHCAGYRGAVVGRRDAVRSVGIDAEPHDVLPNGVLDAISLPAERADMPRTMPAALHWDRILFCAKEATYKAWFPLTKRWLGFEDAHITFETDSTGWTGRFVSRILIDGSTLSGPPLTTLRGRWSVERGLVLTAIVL
Chain of UniProt P37288 (whole entry, looked up): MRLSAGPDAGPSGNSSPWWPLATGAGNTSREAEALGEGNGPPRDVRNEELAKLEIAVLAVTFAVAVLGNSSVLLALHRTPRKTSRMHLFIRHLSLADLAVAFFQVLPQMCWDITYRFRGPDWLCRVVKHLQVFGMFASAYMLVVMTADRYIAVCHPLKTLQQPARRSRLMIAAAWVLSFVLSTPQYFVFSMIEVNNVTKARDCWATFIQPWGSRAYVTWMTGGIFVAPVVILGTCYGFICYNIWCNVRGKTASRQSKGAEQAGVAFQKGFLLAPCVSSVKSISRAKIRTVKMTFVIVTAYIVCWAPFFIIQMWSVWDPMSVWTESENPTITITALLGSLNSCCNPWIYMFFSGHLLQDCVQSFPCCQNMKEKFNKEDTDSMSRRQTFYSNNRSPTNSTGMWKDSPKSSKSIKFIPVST
Chain of UniProt Q13546 (whole entry, looked up): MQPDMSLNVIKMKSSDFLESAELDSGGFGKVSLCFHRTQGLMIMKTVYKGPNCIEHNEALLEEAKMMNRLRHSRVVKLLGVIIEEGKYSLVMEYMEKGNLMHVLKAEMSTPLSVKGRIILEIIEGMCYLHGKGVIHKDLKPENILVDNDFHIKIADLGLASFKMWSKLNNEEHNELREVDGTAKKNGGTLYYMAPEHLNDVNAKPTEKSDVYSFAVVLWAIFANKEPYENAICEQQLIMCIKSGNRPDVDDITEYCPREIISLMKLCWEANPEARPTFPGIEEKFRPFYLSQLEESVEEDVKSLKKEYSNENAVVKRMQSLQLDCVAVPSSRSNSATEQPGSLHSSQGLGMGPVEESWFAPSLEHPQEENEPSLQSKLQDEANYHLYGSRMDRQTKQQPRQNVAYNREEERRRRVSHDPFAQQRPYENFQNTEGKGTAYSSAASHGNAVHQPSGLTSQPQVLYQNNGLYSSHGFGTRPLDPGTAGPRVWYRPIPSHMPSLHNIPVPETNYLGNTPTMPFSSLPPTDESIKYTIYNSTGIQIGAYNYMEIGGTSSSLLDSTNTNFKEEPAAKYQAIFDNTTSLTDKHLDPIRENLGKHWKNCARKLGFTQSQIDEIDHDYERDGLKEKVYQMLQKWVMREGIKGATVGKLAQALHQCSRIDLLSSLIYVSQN
Chain of UniProt P07333 (whole entry, looked up): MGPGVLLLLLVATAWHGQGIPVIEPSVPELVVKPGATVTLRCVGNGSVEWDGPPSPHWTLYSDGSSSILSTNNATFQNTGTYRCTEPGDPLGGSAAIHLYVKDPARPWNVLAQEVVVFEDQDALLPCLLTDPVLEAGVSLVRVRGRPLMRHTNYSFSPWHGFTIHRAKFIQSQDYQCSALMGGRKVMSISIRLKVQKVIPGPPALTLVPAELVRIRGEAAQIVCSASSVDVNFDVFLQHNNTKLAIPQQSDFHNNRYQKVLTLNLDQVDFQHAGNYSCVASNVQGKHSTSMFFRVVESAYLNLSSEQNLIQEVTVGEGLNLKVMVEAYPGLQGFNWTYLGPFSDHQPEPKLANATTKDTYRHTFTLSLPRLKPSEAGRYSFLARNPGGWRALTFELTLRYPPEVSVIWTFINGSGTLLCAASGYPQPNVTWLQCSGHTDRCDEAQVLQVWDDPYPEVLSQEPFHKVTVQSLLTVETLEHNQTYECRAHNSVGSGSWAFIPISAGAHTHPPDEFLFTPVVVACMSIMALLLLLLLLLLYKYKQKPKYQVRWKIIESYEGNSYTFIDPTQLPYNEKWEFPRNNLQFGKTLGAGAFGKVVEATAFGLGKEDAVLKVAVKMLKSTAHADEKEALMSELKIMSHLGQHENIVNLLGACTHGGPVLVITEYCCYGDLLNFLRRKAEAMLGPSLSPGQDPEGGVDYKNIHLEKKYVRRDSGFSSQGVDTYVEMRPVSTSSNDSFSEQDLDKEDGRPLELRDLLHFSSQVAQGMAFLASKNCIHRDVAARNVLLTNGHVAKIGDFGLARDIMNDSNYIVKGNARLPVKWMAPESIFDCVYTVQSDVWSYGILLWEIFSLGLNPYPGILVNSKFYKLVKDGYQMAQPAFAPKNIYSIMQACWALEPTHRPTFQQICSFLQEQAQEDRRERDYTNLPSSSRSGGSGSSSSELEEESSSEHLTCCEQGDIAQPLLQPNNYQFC
Chain of UniProt Q13555 (whole entry, looked up): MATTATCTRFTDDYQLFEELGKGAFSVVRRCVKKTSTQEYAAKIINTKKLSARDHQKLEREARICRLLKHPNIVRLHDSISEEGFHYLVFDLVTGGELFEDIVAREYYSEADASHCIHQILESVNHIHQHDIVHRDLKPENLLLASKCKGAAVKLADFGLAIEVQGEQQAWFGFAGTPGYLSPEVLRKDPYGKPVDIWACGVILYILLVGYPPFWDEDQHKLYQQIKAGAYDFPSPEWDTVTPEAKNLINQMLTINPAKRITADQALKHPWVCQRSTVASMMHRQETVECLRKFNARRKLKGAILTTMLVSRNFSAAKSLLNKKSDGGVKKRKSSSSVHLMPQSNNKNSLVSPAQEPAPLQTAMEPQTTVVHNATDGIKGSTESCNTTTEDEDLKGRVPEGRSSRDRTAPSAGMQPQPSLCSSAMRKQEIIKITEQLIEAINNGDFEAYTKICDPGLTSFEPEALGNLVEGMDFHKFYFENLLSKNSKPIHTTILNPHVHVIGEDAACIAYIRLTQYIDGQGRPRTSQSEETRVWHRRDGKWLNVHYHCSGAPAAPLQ
Chain of UniProt P78356 (whole entry, looked up): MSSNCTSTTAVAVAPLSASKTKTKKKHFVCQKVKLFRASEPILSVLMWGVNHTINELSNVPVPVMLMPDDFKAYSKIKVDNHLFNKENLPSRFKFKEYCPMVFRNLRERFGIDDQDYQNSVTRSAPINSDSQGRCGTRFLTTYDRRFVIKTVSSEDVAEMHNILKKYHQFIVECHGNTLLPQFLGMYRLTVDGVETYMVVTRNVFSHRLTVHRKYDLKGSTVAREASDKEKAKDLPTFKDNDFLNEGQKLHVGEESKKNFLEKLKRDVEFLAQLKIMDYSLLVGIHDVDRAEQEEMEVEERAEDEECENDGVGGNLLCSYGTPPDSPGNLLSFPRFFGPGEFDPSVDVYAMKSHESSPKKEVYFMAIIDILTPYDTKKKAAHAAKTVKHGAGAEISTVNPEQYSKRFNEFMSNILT
Chain of UniProt Q8TDC3 (whole entry, looked up): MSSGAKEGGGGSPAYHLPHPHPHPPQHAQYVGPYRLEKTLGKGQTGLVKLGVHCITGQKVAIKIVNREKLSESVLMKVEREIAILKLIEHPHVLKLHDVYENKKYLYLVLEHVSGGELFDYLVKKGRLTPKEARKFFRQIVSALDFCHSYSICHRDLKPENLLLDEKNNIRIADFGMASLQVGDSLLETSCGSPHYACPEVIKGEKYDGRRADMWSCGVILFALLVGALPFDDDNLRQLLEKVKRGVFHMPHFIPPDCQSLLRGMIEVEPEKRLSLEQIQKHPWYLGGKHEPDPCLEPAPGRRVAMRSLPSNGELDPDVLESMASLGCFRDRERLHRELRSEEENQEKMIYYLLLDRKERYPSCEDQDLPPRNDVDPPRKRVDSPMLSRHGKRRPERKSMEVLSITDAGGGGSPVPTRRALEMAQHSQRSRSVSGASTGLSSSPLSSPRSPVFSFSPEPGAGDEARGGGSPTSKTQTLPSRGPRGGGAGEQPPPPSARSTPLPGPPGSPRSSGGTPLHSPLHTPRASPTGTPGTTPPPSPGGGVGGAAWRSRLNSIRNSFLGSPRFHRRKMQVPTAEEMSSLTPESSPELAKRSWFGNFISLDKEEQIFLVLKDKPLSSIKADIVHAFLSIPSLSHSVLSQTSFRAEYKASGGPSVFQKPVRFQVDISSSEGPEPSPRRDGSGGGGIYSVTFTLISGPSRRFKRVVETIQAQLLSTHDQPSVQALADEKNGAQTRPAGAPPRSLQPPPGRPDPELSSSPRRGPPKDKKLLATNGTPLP
Chain of UniProt Q9H3N8 (whole entry, looked up): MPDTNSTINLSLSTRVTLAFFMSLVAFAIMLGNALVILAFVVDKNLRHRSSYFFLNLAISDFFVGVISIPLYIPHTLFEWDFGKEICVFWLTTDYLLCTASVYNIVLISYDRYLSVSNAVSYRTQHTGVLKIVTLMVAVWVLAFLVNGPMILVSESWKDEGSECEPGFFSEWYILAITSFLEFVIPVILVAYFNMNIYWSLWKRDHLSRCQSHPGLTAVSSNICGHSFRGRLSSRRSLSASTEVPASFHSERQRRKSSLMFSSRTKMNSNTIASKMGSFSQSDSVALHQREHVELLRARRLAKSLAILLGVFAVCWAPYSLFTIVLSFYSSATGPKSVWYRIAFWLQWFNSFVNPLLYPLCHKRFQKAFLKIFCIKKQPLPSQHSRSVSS
Chain of UniProt P41145 (whole entry, looked up): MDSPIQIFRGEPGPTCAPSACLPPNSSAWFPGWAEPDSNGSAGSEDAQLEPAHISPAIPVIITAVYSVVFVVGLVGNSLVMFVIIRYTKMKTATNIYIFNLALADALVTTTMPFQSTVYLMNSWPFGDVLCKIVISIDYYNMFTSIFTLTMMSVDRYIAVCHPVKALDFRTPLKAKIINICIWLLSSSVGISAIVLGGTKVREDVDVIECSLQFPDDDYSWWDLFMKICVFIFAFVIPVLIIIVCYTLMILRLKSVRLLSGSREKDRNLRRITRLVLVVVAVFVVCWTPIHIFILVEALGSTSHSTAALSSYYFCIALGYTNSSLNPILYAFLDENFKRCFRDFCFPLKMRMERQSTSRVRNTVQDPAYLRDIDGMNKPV

With [2H]c1c([2H])c([C@]2([2H])CCCN2C(=O)C(C)(C)Oc2ccc3cn[nH]c3c2)c([2H])c([2H])c1C([2H])([2H])[2H] the remaining binding was 80% (BRSK1 (Homo sapiens, UniProt Q8TDC3); binding, competition with immobilised ligand; 1 µM).
CC(C)c1ccc2[nH]c(=S)n(Cc3cccnc3)c(=O)c2c1 has an IC50 of 2.1 µM (4'-phosphopantetheinyl transferase PptT; enzyme activity, inhibitor, FP).
C#Cc1n[nH]c2c(-c3cn([C@@H](C)c4ccccn4)c(=O)[nH]c3=O)cc(F)cc12 gave an inhibition of 1.1% (CSF1R (Homo sapiens, UniProt P07333); enzyme activity, inhibitor; 0.1 µM).
The remaining binding of Nc1ncc(-c2nc(N3CCOCC3)nc(N3CCOCC3)n2)c(C(F)F)n1 is reported as 100% (PIP4K2B (Homo sapiens, UniProt P78356); binding, competition with immobilised ligand; 10 µM).
For Cc1ncsc1-c1ccc([C@H](CC(=O)N2CCN(c3ccc(C#Cc4ccc(C(=O)N5CCC(n6cc(-c7ccc8c(c7)CCN8C(=O)Cc7cccc(OC(F)(F)F)c7)c7c(N)ncnc76)CC5)cc4)cn3)CC2)NC(=O)[C@@H]2C[C@@H](O)CN2C(=O)[C@@H](NC(=O)C2(F)CC2)C(C)(C)C)cc1, the Dmax was 99% (RIPK1 (Homo sapiens, UniProt Q13546); protein level, degrader, western blot; MOLM-14; 0.2 µM).
The inhibition of CC(C)CC(=O)OC[C@H]1O[C@@](C#N)(c2ccc3c(N)ncnn23)[C@H](O)[C@@H]1O is reported as -1% (AVPR1A (Homo sapiens, UniProt P37288); cell-free assay; 20 µM).
COc1ncccc1-c1cnn2ccc(N3CCN(C(=O)OC(C)C)CC3)nc12 has a remaining binding of 100% (PRKACB (Homo sapiens, UniProt P22694); binding, competition with immobilised ligand; 1 µM).
COC(=O)OCc1cc2[nH]c(=S)n(Cc3cncnc3)c(=O)c2cc1Cl gave an IC50 of 4.18 µM (4'-phosphopantetheinyl transferase PptT; enzyme activity, inhibitor, FP).
The inhibition of c1cncc([C@@H]2CCCN2)c1 is reported as -11.1% (HRH4 (Homo sapiens, UniProt Q9H3N8); ligand displacement; 50 µM).
Oc1cccc(N2[C@@H]3CC[C@H]2CN(CCCc2ccccc2)C3)c1 has an Emax of 0% (OPRK1 (Homo sapiens, UniProt P41145); cAMP, agonist).
For Cc1nn(C)cc1-c1nc2c(N3CCN(Cc4ccc(Cl)cc4)CC3)c(Cl)cnc2[nH]1, the remaining binding was 100% (CAMK2G (Homo sapiens, UniProt Q13555); binding, competition with immobilised ligand; 1 µM).
